Published values pooled from the literature.
Numbered parts are unrelated; each lists some results of a single study. Substitutions count along the parent as printed.

Set 1
Target: Histone acetyltransferase KAT6A, winged helix 2, GST fusion (KAT6A, Homo sapiens, UniProt Q92794, residues 85-181)
Method: protein binding microarray
Molecule type: double-stranded DNA, one strand shown
Sample: in vitro
Concentration: not given
Notes: 8-mer, flanks averaged, mean of 2 arrays, mostly near background
Reference: not given
Direction: higher = stronger binding
Residues (chain): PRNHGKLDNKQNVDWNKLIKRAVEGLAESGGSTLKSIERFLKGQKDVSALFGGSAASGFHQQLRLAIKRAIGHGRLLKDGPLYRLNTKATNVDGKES
| Strand | E-score |
| --- | --- |
| AGCGTTGA | -0.0148 |
| GTCCCGCA | 0.0328 |
| CCACGTCG | -0.0411 |
| GCCACAAC | 0.156 |
| TCATGTCA | -0.0842 |
| AAGCTGGA | -0.0608 |
| ATGACCGC | 0.00617 |
| CGGTCGAG | -0.0143 |
| CAACCCGC | 0.1 |
| ATAGATAA | -0.0108 |
| GTCACGAC | 0.123 |
| ACCCAATA | -0.00103 |
| AGGCCGAC | -0.099 |
| ATAAGGGA | -0.172 |
| CGGCCTCC | -0.0419 |
| CGGGCGGA | 0.176 |
| CGATTCTC | 0.0657 |
| ATCAGCTG | 0.116 |

Set 2
Target: CCNA2, cyclin fold, Cln2 fusion (human)
Method: yeast growth competition, sequencing
Sample: yeast
Notes: strong parent motif
Reference: not given
Direction: higher = stronger binding
Parent: SCAPER docking peptide (human); SNARRSLNFGGST
| Variant | normalised enrichment score |
| --- | --- |
| R5I | 2.76 |
| S6E | 5.3 |
| A3R | 0.659 |
| N2I | 5.5 |
| L7E | -0.0354 |
| L7W | 0.738 |
| F9K | 0.269 |
| L7T | 0.807 |
| N2S | 6.61 |
| S1N | 5.65 |
| S6T | 5.66 |
| S1G | 5.93 |
| S1D | 4.68 |
| S12R | 5.12 |
| T13D | 6.92 |
| N8Q | 5.9 |
| N8P | 3.37 |
| F9L | 2.71 |

Set 3
Target: RNA binding protein fox-1 homolog 2, RRM domain, GST-SBP tag (RBFOX2, Homo sapiens, UniProt O43251-10, residues 100-194)
Method: RNA Bind-n-Seq
Molecule type: RNA
Sample: in vitro
Concentration: 365 nM
Notes: natural RNA segment, single round, ends assumed
Reference: no-protein control
Direction: higher = stronger binding
All sequences stand within: GGGAGUUCUACAGUCCGACGAUC … UGGAAUUCUCGGGUGCCAA
Target sequence (chain): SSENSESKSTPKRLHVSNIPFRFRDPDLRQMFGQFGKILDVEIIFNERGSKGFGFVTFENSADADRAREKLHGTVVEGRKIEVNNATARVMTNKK
| Strand | RBNS enrichment (R) |
| --- | --- |
| CAAAGCUGGUGUAGCCAUGCUGGUGAGAAAAAUCCUGUUCAACCUGGGUUCUCCCAGUUACGGAAACCUUUUAAAGAUCCACAUUAGCCUUUUAGAAUAAAGCUGCUACU | 0.248 |
| UGGGGAAGAUACCCCUUUUCUGAGGAAUGAGUUUGCCUCCGUCCCCUGCCCAUGCUGGGAGCCCACGCUCACCCCCUCACCCCUCCAAGCUCACUCCCCAACCCCCAACU | 0.454 |
| UGGUGAAAGCACUGCUGCCCAGCCUCCAAGCUCCAUCUCCACUCCAGAUUUUUUACAGCUGCCUGCAGUACUUUACCUCCUAUCAGAAGUUUCUCAGCUCCCAAGGCUCU | 0.421 |
| UCCCAGUCUGCCAGAGCCUGCACAUCAAAUAAGUGACCAUUGGAAGUAGGGUGGGGAAGUGUGGAGGAGGUGACUGGCCUGCCUCAAAUGCAUGUUUUGAGAUGUUUGAC | 31.9 |
| UUUACCAAAGGUCUAAGGCAUUUGGUUACUUAACCCAAAUAUCCUGAACUGUGCGUAAAGUAAUAGAGAAAAGCUUUAGGGUCUCAAUAGUGUCACCUGUGUAAAUCAAA | 0.248 |
| AUGUCAUUUUGCCCUCAAUCUUGGAAUUUCUCCCAGGGCCCUUGUAGUCUUGUGCUGUCUCCUGUCCUCGUCCAUUUUAGAGCAAGACGGGAGGAAAAGGCAUUUCCAGC | 0.364 |
| UUGGGCUUAGCCUUAGUCUCAUUCAAUCUCCAUUAUUACAGCCAUGGGGAAGAGUGAAAGAUAUAAAGUAACCUAAUUAAAUGUAUGGAAUUGCUAUUUUUAUAGCUGAU | 0.326 |
| GUUGUAUUUAGAAAUAUCUUAUGUAAUGUGCUUUGUAAAAGAAGAUGAAUUAAAAUGAAAUUUUGUGAAAAUAUUUUUGUUCAAAGUUGUCACAGUCCAAGAGGAAUGGU | 1.26 |
| UUUGCCCAUUUACACUUUUGAGACUUUUUGGUGGAUGUAAAUAACCCCAUUCUUUGCUUGAACACAGUAUUUUCCCAAUAGCACUUUCAUUGCCAGUGUCUUUCUUUGGU | 0.719 |
| GGAGAUGGAGCUUUCUAUGGCCCAAAGGUUGACAUACAGAUUAAAGAUGCGAUUGGGCGGUACCACCAGUGUGCAACCAUCCAGCUGGAUUUCCAGUUGCCCAUCAGAUU | 0.247 |
| AGAAUUCAAUAUCAGUUUAGUAGCAACAGUACAGUUGCCAUUUAAAUUGGUUUAGUUGCUGUAUAUCACCAUAGCCCCUGUUUACGUCAAACCUGUGUCUCGCUCUAUAU | 0.242 |
| CAGUGAGAACCACUGAUUUUUUCCACUGACCUACUGAAUAUCUAGCAUCCUUAGAUUGGCUCAACUGUUACUUUCCUAAGGAGUCCUUCUACAGAAUAGGUCAGAUCUUG | 0.499 |

Set 4
Target: Sal-like protein 4, full length isoform A (SALL4, Homo sapiens, UniProt Q9UJQ4, residues 1-1053)
Chain of UniProt Q9UJQ4 (whole entry, looked up): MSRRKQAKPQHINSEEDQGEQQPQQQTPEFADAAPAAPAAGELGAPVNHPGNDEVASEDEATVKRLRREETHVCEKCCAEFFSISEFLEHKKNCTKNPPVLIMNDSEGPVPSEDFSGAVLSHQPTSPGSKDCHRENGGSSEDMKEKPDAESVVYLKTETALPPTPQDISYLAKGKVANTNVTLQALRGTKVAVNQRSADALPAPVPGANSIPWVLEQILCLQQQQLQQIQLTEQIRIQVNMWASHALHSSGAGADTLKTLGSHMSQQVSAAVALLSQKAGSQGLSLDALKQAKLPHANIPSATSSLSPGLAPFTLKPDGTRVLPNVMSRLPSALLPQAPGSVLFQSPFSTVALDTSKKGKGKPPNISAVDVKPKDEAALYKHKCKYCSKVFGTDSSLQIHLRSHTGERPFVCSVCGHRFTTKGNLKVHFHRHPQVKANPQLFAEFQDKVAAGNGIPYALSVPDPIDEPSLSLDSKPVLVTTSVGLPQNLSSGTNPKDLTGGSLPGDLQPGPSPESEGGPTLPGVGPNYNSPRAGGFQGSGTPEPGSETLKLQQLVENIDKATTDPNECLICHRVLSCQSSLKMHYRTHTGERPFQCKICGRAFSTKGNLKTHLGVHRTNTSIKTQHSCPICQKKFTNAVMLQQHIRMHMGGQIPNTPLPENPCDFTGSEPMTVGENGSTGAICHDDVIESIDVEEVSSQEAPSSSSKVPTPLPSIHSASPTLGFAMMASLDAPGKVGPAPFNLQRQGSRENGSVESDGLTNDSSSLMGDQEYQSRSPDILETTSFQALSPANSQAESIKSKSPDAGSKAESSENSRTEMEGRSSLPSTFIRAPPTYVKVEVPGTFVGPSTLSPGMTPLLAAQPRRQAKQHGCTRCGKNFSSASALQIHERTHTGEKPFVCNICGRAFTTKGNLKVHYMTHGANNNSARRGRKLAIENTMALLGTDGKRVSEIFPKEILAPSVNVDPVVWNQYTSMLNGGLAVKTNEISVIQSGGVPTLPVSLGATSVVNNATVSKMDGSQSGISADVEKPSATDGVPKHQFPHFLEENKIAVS
Method: universal PBM
Molecule type: double-stranded DNA, one strand shown
Sample: in vitro
Concentration: 600 nM
Notes: 8-mer, flanks averaged, mean of replicates
Direction: higher = stronger binding
| Strand | E-score |
| --- | --- |
| CACTCTTA | 0.059 |
| ATGGTAAT | 0.345 |
| CGAGACTA | -0.0066 |
| AATTTGCC | 0.13 |
| ACTGGTCC | -0.292 |
| CTGGCGGA | -0.255 |
| AGTGTTGG | -0.135 |
| AGATGACC | -0.0536 |
| AATTGTTC | 0.303 |
| GATCCGCC | -0.195 |
| CCAATTGA | 0.161 |
| ATCCAAGC | -0.216 |
| CAAAAAGC | 0.178 |
| CACAATCA | 0.0944 |
| ACCTTCGC | -0.111 |
| GCAACCAA | 0.0357 |
| AGCGGAAC | -0.248 |
| ATTCTTAG | 0.105 |
| AGCGATGA | -0.0307 |
| AAATTCCA | 0.285 |
| ACTTCACG | -0.0721 |
| ATGTTGGG | -0.15 |
| CCTGATGC | -0.059 |
| GCAGGTGA | -0.231 |
| CGCTGATC | -0.154 |

Set 5
Target: TAR DNA-binding protein 43, full length, His tag (TARDBP, Homo sapiens, UniProt Q13148, residues 1-414)
Method: RNA Bind-n-Seq
Molecule type: RNA
Sample: in vitro
Concentration: 20 nM
Notes: 6-mer, flanks averaged, single round
Together with: 150 mM LiCl
Reference: input library
Direction: higher = stronger binding
| Strand | 6-mer enrichment (R) |
| --- | --- |
| CUAUGA | 0.857 |
| AUAUGG | 1.04 |
| GUAGCG | 1.09 |
| CCGGAC | 0.945 |
| AUAAUG | 0.984 |
| UUUGAG | 1.19 |
| GGGGCG | 1.37 |
| AAUUCU | 0.922 |
| UAUGUA | 1.22 |
| AUACAG | 0.829 |
| UUCUUU | 1.21 |
| ACUGCG | 0.909 |
| UUGCAC | 0.952 |
| CCUGAA | 0.868 |

Set 6
Target: ABI1, truncated, D143A, DHFR fusion (Arabidopsis thaliana)
Method: DHFR PCA, deep sequencing
Sample: yeast
Notes: methotrexate growth selection, single substitutions
Together with: (+)-ABA 4.8 µM
Reference: wild-type fitted maximum
Direction: higher = stronger binding
Parent: PYL1, truncated, DHFR fusion (Arabidopsis thaliana); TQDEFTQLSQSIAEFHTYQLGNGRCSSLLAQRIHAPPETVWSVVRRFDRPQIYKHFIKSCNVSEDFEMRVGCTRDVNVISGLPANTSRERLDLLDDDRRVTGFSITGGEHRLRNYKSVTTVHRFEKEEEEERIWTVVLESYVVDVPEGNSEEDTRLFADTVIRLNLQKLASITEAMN; partner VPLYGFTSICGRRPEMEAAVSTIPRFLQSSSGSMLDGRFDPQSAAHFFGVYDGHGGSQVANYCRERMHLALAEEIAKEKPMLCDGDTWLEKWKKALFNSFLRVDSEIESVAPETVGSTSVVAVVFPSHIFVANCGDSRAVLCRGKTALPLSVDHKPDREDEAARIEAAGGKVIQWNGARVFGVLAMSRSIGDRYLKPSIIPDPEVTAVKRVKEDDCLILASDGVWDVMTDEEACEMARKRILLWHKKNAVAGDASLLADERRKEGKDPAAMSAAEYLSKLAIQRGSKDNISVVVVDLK
| Variant | relative binding score [%] |
| --- | --- |
| I12L | 28.5 |
| V142E | 73.6 |
| A158R | -13.1 |
| V76R | 3.56 |
| E14P | -12.2 |
| G21K | 72.1 |
| T1G | 71.4 |
| E128K | 77.8 |
| Q51Y | 49.3 |
| Y141W | -10.1 |
| I105K | 3.92 |
| S171Q | 85.2 |
| E125G | 76.2 |
| A84E | 14.9 |
| T106L | 80.4 |

A few entries again (set 4):
| Strand | E-score |
| --- | --- |
| ATGGTAAT | 0.345 |
| CGAGACTA | -0.0066 |
| AATTTGCC | 0.13 |
| ACTGGTCC | -0.292 |
| CTGGCGGA | -0.255 |
| AGTGTTGG | -0.135 |
| AGATGACC | -0.0536 |
| AATTGTTC | 0.303 |
| GATCCGCC | -0.195 |
| CCAATTGA | 0.161 |
| ATCCAAGC | -0.216 |
| CAAAAAGC | 0.178 |
| CACAATCA | 0.0944 |
| ACCTTCGC | -0.111 |
| GCAACCAA | 0.0357 |
| AGCGGAAC | -0.248 |
